Experimental data from different studies.
Numbered parts are unrelated; each lists some results of a single study. Positions count from the first letter of the parent shown.

Set 1
Target: Prothrombin, mature alpha-thrombin (F2, Homo sapiens, UniProt P00734)
Method: aptamer microarray, sandwich
Form: DNA with 2'F-ANA
Medium: in vitro
Concentration: 200 nM
Setting: whole 15-mer aptamer, many near background
Added: Cy3 exosite-II aptamer, 400 nM
Reading: higher = stronger binding
Oligonucleotide: GGTTGGTGTGGTTGG
Modification	mean fluorescence intensity [a.u.]
2'F-ANA at 2 4 6 9 10 13 15	67.6
2'F-ANA at 6 7 8 9 10 11 13	139
2'F-ANA at 1 4 6 8 12 14 15	62
2'F-ANA at 3 4 6 7 8 9 13	430
2'F-ANA at 1 2 3 5 6 9 12 14	46.7
2'F-ANA at 3 7 8 10 11 13 14	411
2'F-ANA at 1 2 3 4 5 6 7 9 10 11 12	50.7
2'F-ANA at 1 3 5 7 9 14 15	47.7
2'F-ANA at 1 3 4 5 7 8 12	149
2'F-ANA at 4 5 7 8 13 15	53.7
2'F-ANA at 3 4 6 10 14 15	176
2'F-ANA at 1 2 6 10 11 15	52.2
2'F-ANA at 1 3 5 13 14 15	45
2'F-ANA at 1 7 9 11 12	315
2'F-ANA at 3 5 6 7 8 11 14 15	54.5
2'F-ANA at 1 10 12 13 14	45.7
2'F-ANA at 3 5 8 9 11 14	59
2'F-ANA at 1 4 5 6 7 9 10 11 12 13 14	47.7
2'F-ANA at 2 5 6 8	78.9
2'F-ANA at 1 2 6 7 9 11 13 15	84.8
2'F-ANA at 1 4 6 9 10 12 13 15	64.6
2'F-ANA at 1 7 8 9 10 13 14 15	49.2
2'F-ANA at 3 4 5 6 9 10 11 12	115
2'F-ANA at 1 2 8 10 11 14	47
2'F-ANA at 1 6 7 10 13 14 15	45.4

Set 2
Target: ABI1, truncated, D143A, DHFR fusion (Arabidopsis thaliana)
Method: DHFR PCA, deep sequencing
Medium: yeast
Setting: methotrexate growth selection, single substitutions
Added: (+)-ABA 2500 µM
Relative to: wild-type fitted maximum
Reading: higher = stronger binding
Parent: PYL1, truncated, DHFR fusion (Arabidopsis thaliana); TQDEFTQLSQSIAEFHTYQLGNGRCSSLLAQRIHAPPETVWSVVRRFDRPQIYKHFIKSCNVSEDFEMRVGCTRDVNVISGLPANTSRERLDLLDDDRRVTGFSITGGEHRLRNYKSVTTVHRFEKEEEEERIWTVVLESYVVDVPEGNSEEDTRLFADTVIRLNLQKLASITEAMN; partner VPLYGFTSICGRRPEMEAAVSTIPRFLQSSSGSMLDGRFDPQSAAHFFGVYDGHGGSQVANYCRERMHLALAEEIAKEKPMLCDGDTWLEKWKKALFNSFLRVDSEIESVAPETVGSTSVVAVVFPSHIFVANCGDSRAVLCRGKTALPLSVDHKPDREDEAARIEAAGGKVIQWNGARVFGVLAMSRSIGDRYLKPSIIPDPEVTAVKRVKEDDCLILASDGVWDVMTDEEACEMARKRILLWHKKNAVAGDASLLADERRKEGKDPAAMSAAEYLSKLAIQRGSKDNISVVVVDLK
Change	relative binding score [%]
L169S	-5.86
Q51K	94.9
D97S	104
I172D	63.3
V137H	0.11
V62S	88.2
I79D	82.7
E14K	79.2
I133W	104
V118W	60
Q51L	84.7
L93R	105
T119E	34.5
L93Q	102

Set 3
Target: PABPC1L2, full length, GST fusion (mouse, UniProt A0ABA7IW68)
Method: RNAcompete
Form: RNA
Medium: in vitro
Concentration: 20 nM
Setting: 7-mer, probes averaged, single round
Relative to: mean of 7-mers
Reading: higher = stronger binding
Residues (chain): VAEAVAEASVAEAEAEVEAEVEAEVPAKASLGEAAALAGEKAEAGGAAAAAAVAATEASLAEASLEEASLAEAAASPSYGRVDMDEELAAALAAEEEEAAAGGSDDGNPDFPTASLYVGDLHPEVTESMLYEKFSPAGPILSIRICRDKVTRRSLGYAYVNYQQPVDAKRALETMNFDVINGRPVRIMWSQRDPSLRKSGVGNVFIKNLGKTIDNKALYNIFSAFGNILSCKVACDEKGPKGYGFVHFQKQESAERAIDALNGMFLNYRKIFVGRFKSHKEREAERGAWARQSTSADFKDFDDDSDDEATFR
Oligonucleotide	7-mer Z-score
ACAUCCC	-0.277
GGUAUCG	-0.0627
UGUGGCA	0.196
GAAAUGG	0.425
GGAGCAC	-0.0464
CUGCUGG	-0.211
CGGCGCG	-0.157
GUGGAUU	-0.115
AAUCAAA	1.14
AUUGGGA	0.372
AGAUUGU	-0.365
ACUCAAU	-0.255
UAGCCAG	-0.173
AAGAGUC	0.287
GUUUCCC	-0.469
CGAUAUC	-0.166
GCUCACA	-0.104
CCGAACC	-0.255

Set 4
Target: RNA binding protein fox-1 homolog 2, RRM domain, GST-SBP tag (RBFOX2, Homo sapiens, UniProt O43251-10, residues 100-194)
Method: RNA Bind-n-Seq
Form: RNA
Medium: in vitro
Concentration: 365 nM
Setting: natural RNA segment, single round, ends assumed
Relative to: no-protein control
Reading: higher = stronger binding
All sequences stand within: GGGAGUUCUACAGUCCGACGAUC … UGGAAUUCUCGGGUGCCAA
Residues (chain): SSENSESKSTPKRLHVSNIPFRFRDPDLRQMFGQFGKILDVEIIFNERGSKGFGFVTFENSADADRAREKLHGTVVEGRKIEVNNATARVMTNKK
Oligonucleotide	RBNS enrichment (R)
GCUGCUGCGUCUAUCAGGAGAGCAGGAUCAGAUUAUGGUAUCCAGAUACCAGUAGAAGAAUUGGAUGUUAUACUAUACUUAGCACCUUAAUUCUACUUAACAUUUACUUC	0.293
CACAUAUAUUAUGCAUGUGGUGAAAAGAAUUGGCUAGAUAGGGGAUUUUUCUGAACACUGCAAAAAUAGAACGUAGCAAAAUGGCUUCAGUUAUCACUUUUGGGUGUCUG	0.847
UCAUGUUCCUGCCCCCUUUACUCCAUGCCAAACCUGGGAUUAGACAGCCUGCUGGCUCCAGAAAAAAGGUCUUGGUAGGCAUUAGUCUAUCCUAGGUGCCCCCAGUGCAC	0.381
UCACCUGUUCUUACCCACGUCCCUCCUCAAUAAAGAAGCCAGUCAGGCGUGGUUAUAUGUUGCUACGUCUCCAGUGACUUUCUUCUCUUAAGACACAGUAGUGCUGAAUU	0.44
CUGAGAGCAGCAACAGCCCUCUCUUCCUGCCCCCACCUAGGAGUGCCAAUACACUUAAGCUUUGUCUGCAAAACCCUGAUUUUUUUUUUAAAUCUAAAAUGAAUGACUUU	0.564
UGAUAGCUUUUCUAAUGUCUGACUAGUAAAUUUUAAAAUGUCAUUCUUUUACAAAUCAUAAUUAGUACUUUUGGUUAUUACCGUCUUCAGUGUUAGCCCAAAGAUUCUGA	0.551
AGACGUCCCCGUGAGCCCGAGGCUGGAAGUGGUGUCUGCCUUCAAGGGUUAAUCCCUCUUUGUUCCAAGCAGAAGCAUUCUGGCAUCCCAGUGAAGAGCUCAGGCCCUCA	0.187
AAGAAUGUGGAGGGAAAGAACAAGGCUGGAGGCCGGAGCAAGUGAGGACUAAGCAAGGGAAGGGAGGACCGAUUGCCAUCGGCCUUCAUGCUCUGGUUAGGGUGAGGUUG	1.71
GCCCAACAGUAUAGCUGGGUGAACAUCUCUAGCUAGCAUAUGCUAUAUAUGUCCUCACAUACCUCUGCUGGAAGGACAGAGCGCUGUCUUAUGACUGGUAAGAGGGAGUG	0.387
ACUUCCUAGGACUAAGUUUACUAAACUACACUGAAGCUAUUAUACUUUCUAGAUCAGAAAAAUUAUACACUACAGUUGAAGAGCUGAAUUCUACUAUGGAUGGAUGUUGU	0.31
CAUCCCUCCCAGCAGCUCCCCUUCCACCCCCCGGGGAACUGAAGAUUGUCCUGGCCGCGACCUGAGACCUCCAUGAGUGGAGGGAAGAGUGAUCUAUGUCUCUUCCCCCC	0.453
CAUUUACAUUUUUAGGUUAUUACAGAAAAUUCUCUUAAUUUAUUAUAGUCAAGUGUAUUAUGUAAUCUCUAUUUAGAACAGUUUCCCAAAGGAAUGUGAUUGGAUUUACU	0.873

Set 5
Target: Sal-like protein 4, full length isoform A (SALL4, Homo sapiens, UniProt Q9UJQ4, residues 1-1053)
Sequence of UniProt Q9UJQ4 (whole entry, looked up): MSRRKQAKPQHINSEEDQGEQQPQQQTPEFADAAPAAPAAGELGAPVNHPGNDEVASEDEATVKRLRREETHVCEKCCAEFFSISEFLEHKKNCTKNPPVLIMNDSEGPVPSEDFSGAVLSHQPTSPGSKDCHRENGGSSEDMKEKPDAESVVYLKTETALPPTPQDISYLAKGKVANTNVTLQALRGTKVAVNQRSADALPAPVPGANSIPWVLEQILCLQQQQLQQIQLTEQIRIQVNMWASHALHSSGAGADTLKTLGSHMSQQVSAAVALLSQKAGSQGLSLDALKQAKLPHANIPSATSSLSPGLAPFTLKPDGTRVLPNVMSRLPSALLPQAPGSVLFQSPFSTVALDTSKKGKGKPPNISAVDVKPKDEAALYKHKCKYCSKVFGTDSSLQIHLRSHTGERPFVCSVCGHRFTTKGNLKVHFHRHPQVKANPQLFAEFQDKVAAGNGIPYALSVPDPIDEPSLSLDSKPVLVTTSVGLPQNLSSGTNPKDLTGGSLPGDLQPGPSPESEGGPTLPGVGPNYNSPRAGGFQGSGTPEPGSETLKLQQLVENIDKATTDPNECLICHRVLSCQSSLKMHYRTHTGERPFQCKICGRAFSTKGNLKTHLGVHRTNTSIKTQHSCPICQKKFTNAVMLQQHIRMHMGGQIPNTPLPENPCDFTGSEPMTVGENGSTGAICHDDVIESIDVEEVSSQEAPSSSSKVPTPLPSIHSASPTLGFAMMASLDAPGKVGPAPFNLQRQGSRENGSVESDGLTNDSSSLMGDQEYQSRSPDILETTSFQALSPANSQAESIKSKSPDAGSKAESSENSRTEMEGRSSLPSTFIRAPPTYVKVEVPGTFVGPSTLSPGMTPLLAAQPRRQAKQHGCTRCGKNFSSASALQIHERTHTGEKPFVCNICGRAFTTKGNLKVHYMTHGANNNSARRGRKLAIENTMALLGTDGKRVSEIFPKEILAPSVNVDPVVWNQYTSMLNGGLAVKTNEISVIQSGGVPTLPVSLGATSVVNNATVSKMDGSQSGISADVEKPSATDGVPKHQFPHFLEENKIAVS
Method: universal PBM
Form: double-stranded DNA, one strand shown
Medium: in vitro
Concentration: 600 nM
Setting: 8-mer, flanks averaged, mean of replicates
Reading: higher = stronger binding
Oligonucleotide	E-score
ACGTCACG	-0.0655
GCACCGGC	-0.331
AAATAACA	0.348
CCACTGCC	-0.29
ATTAGAAG	0.119
GAGTGGAA	0.107
GAAGTGGA	-0.0668
CAGGAAAA	0.0826
GTAAATAC	0.167
CACGGCAG	-0.191
ACTTACTA	0.0472
AAGTACAC	0.154
ACCCGTTG	-0.311
AGCGAACT	-0.0185
ATCATTGC	0.106
AACATAGC	0.172
CCTAGCCA	-0.0503

Set 6
Target: CCNF, cyclin fold, Cln2 fusion (human)
Method: yeast growth competition, sequencing
Medium: yeast
Setting: strong parent motif
Relative to: not given
Reading: higher = stronger binding
Parent: SLBP docking peptide (human); ARYKRKLLINDFG
Change	normalised enrichment score
AWYKRKLLINDFG [R2W]	1.98
ARYKCKLLINDFG [R5C]	2.23
ARYKRKLLINEFG [D11E]	1.92
PRYKRKLLINDFG [A1P]	1.87
ARYKRKLLINDGG [F12G]	1.52
ARYKRVLLINDFG [K6V]	1.72
ARYKRKLGINDFG [L8G]	1.46
ARYKRQLLINDFG [K6Q]	1.49
ARYFRKLLINDFG [K4F]	2.35
ARYKRKLLIHDFG [N10H]	1.21
ARYKRKFLINDFG [L7F]	1.71
ARRKRKLLINDFG [Y3R]	1.63
ARYKRKLLINVFG [D11V]	2.31
ARYKRKLLINYFG [D11Y]	3.12
ARYKHKLLINDFG [R5H]	1.24
ARYKRKLLINHFG [D11H]	0.975
ARYKRKLVINDFG [L8V]	2.12
ARYKRKLLINDFE [G13E]	1.16
ARYKRKLLINRFG [D11R]	2.16
AQYKRKLLINDFG [R2Q]	2.27
ARYKRKLLINDWG [F12W]	1.61
AVYKRKLLINDFG [R2V]	1.59

Other studies, line by line
Substance	target	test	system	setting	scale	quantity	result
PhoQ, residues 284 288 289 292 302 303 NLCILV	PhoP, residues 12 14 15 18 19 AYFRS (Escherichia coli, UniProt P23836)	Sort-seq, item: YFP reporter	E. coli	PhoQ-PhoP variant library, added: 10 µM Mg2+	relative to: high Mg2+ state, higher = stronger signaling	fold induction	14.9

Excerpt of the above (set 6):
Change	normalised enrichment score
ARRKRKLLINDFG [Y3R]	1.63
ARYKRKLLINEFG [D11E]	1.92
ARYKRKLVINDFG [L8V]	2.12
ARYKRKLLINDWG [F12W]	1.61
ARYKRKLLINVFG [D11V]	2.31
ARYKRKFLINDFG [L7F]	1.71
ARYFRKLLINDFG [K4F]	2.35
PRYKRKLLINDFG [A1P]	1.87
